# Measurements collected from several papers.
# Several values in a cell are separate wells, animals, samples, runs or records. Numbers after ± are the reported error.
# Sequence of UniProt Q9NYV8 (whole entry, unmodified, looked up): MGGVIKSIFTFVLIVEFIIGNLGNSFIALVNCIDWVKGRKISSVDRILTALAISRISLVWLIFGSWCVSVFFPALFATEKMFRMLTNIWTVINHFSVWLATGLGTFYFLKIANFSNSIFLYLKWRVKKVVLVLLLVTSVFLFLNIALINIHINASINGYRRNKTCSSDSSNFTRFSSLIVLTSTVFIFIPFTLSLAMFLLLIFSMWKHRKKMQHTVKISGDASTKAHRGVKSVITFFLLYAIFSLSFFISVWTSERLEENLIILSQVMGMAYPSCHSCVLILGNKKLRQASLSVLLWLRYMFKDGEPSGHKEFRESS
# Sequence of UniProt O75762 (whole entry, looked up): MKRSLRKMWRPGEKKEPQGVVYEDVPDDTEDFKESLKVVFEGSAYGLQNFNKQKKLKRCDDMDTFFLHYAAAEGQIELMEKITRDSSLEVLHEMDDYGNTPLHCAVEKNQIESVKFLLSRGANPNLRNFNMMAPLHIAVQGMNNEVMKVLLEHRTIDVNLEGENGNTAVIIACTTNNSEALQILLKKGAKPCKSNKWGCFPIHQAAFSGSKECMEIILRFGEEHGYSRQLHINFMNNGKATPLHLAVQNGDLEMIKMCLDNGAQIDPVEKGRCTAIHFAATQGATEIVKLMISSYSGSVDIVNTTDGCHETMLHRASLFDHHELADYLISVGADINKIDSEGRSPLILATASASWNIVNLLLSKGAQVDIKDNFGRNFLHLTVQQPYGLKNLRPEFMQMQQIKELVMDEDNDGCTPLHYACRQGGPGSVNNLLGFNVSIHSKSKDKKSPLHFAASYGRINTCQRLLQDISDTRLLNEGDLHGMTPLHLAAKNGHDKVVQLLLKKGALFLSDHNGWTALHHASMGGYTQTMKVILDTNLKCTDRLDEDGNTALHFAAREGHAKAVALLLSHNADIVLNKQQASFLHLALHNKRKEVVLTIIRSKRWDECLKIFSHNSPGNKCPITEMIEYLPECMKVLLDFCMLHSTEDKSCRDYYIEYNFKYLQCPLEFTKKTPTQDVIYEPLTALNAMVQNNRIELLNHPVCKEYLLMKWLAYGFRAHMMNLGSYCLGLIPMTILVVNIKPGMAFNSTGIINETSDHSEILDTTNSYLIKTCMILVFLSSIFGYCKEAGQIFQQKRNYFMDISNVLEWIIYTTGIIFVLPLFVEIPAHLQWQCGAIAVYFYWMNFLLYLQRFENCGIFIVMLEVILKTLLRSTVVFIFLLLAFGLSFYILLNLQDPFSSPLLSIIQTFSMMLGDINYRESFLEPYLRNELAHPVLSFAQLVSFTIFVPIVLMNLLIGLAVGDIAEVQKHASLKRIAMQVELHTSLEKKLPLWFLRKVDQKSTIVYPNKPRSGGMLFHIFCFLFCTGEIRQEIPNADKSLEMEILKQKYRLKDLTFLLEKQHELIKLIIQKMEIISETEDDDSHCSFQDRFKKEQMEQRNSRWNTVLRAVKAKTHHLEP
# Sequence of UniProt P51575 (whole entry, unmodified, looked up): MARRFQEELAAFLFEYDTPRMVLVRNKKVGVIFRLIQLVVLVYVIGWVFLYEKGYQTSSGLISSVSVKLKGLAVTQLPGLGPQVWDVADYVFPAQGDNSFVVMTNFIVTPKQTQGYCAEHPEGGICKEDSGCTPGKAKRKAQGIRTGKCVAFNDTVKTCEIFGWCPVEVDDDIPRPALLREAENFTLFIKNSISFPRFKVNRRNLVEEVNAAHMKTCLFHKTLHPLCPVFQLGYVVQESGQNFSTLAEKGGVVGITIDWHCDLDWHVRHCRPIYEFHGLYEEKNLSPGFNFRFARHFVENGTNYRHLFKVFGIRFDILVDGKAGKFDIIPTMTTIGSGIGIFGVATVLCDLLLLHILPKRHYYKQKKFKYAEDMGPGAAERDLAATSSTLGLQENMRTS
# Sequence of UniProt Q96NY8 (whole entry, looked up): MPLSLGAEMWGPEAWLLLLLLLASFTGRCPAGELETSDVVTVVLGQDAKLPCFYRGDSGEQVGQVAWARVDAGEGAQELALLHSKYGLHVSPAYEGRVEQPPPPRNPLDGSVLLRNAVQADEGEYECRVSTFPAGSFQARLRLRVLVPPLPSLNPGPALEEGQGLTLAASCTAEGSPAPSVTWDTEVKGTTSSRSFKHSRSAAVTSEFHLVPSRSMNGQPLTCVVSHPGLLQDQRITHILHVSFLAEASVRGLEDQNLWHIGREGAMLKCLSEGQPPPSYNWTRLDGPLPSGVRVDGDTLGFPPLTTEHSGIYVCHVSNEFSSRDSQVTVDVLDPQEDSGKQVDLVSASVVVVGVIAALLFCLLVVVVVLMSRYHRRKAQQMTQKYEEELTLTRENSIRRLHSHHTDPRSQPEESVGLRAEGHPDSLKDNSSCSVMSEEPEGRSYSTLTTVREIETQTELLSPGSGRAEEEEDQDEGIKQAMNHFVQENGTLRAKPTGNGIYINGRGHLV
# Sequence of UniProt P22736 (whole entry, looked up): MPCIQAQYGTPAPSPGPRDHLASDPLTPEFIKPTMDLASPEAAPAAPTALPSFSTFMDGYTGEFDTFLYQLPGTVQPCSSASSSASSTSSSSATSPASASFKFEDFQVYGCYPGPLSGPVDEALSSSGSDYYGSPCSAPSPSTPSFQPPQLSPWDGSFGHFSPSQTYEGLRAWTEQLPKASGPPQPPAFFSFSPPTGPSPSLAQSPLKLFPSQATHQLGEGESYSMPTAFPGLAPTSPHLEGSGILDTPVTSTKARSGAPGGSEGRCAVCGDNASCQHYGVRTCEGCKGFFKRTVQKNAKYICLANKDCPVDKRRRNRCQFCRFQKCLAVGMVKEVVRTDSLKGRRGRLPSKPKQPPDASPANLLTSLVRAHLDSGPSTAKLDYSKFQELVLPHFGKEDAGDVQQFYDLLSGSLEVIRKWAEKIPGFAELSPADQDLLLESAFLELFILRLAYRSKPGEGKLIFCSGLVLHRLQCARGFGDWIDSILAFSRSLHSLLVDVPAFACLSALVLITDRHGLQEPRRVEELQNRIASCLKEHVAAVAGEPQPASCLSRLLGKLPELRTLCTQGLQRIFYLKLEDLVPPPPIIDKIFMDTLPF
# Sequence of UniProt P29597 (whole entry, looked up): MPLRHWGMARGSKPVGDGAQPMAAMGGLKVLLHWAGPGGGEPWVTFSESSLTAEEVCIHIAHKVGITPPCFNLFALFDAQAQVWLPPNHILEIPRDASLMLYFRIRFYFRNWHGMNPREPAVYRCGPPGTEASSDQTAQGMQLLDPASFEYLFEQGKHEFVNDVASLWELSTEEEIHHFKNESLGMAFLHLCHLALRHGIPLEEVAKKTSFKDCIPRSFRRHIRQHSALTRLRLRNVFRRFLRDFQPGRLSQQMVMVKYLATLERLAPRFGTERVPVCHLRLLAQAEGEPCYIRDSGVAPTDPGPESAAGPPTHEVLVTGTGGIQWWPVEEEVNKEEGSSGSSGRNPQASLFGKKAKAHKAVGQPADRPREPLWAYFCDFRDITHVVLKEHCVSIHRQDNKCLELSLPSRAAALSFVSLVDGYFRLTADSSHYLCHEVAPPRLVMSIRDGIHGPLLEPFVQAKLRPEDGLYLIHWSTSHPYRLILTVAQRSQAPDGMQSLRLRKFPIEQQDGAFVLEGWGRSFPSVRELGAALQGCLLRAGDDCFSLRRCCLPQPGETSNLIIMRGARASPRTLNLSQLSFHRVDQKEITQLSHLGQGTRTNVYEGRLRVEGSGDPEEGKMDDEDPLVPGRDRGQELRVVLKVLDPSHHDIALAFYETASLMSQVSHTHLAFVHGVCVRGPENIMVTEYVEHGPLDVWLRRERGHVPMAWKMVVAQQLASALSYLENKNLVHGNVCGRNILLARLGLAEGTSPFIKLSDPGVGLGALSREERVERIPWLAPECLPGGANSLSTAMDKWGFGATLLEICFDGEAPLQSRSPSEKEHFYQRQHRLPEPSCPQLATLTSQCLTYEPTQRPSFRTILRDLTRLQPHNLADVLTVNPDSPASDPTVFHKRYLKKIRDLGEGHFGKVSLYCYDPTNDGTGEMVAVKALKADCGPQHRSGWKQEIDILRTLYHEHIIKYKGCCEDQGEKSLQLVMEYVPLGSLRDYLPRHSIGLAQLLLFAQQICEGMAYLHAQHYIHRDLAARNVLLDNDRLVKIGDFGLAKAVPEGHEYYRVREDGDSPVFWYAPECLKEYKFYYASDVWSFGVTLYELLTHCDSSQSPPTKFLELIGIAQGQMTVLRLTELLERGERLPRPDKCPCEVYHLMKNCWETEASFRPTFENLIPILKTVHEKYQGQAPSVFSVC
# Sequence of UniProt Q9HBX9 (whole entry, unmodified, looked up): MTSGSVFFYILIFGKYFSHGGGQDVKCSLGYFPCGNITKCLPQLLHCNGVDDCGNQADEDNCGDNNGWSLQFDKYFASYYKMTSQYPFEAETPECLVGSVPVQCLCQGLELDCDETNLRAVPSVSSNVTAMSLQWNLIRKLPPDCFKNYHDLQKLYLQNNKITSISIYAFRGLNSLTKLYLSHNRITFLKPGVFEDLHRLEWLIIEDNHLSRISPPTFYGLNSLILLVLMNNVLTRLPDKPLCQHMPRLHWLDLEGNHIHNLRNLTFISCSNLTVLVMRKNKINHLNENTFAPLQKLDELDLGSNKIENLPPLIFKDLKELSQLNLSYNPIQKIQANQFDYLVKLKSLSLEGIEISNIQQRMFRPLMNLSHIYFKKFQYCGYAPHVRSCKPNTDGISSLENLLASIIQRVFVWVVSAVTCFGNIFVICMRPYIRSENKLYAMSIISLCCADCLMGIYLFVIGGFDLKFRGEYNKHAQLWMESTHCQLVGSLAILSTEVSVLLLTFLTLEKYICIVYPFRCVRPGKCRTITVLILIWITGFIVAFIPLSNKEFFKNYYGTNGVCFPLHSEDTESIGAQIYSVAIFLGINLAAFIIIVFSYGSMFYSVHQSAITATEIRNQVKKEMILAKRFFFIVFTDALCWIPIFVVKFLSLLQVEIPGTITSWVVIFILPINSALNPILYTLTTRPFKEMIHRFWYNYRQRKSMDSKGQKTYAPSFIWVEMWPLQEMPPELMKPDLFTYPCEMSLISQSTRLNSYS
Compound,target,assay,system,conditions,scale,quantity,result
COc1cccc2c(Nc3ccc4[nH]c(C(=O)N/N=C/c5ccc(SC)cc5)cc4c3)cc(C)nc12,"Nuclear receptor subfamily 4 group A member 1 (NR4A1, Homo sapiens, UniProt P22736)","reporter gene, NBRE reporter full-length",,1 µM,baseline: vehicle,activation,1.08 ± 0.08 fold
CCN1CCC[C@H]1CNC(=O)c1c(O)c(Cl)cc(Cl)c1OC,"2-oxoglutarate receptor 1 (OXGR1, Homo sapiens, UniProt Q96P68)","β-arrestin recruitment, TANGO luminescence",,concentration not given,baseline: basal luminescence,log2 fold change,0.427
C=CC(=O)N1CCC(COCC(=O)N2CCN(c3nc(-c4cnc(N)nc4C(F)F)nc(N4CCOC[C@@H]4C)n3)CC2)CC1,"Non-receptor tyrosine-protein kinase TYK2, JH1 domain (TYK2, Homo sapiens, UniProt P29597)",KINOMEscan,,1 µM,baseline: DMSO control,remaining binding,81%
[H]/N=C(/N)NCC(=O)O,"Sodium- and chloride-dependent taurine transporter (SLC6A6, Homo sapiens, UniProt P31641, G62A)","binding, microscale thermophoresis",,"62.5 µM, room temperature, with: 50 nM labelled protein",higher = more binding,normalised MST signal,-0.00654
C[C@H]1O[C@@H](O[C@H]2CC[C@@]3(C)[C@@H](CC[C@]4(C)[C@@H]3C=C[C@]35OC[C@@]6(CCC(C)(C)C[C@H]63)[C@@H](O)C[C@]54C)[C@]2(C)CO)[C@H](O)[C@@H](O[C@@H]2O[C@H](CO)[C@@H](O)[C@H](O)[C@H]2O)[C@H]1O,"NAD-dependent protein deacetylase sirtuin-1 (SIRT1, Homo sapiens, UniProt Q96EB6)","binding, microscale thermophoresis",,122 nM,,MST normalised fluorescence,885 a.u.
CC[C@H](C)[C@@H]1NC(=O)[C@H](C)NC(=O)[C@H]([C@@H](C)CC)NC(=O)[C@H](CCC(N)=O)NC(=O)[C@H](C)NC(=O)[C@H](CCCNC(=N)N)NC(=O)[C@H](C(C)C)NC(=O)[C@H](CC(C)C)NC(=O)[C@H](CCC(=O)O)NC(=O)[C@H](CCCNC(=N)N)NC(=O)CNC(=O)[C@@H](NC(=O)[C@H](CC(C)C)NC(=O)[C@H](CCCCN)NC(=O)[C@@H](NC(=O)[C@@H](NC(=O)[C@H](CCC(=O)O)NC(=O)[C@H](CCC(=O)O)NC(=O)[C@H](CCSC)NC(=O)[C@H](Cc2c[nH]c3ccccc23)NC(=O)[C@H](CO)NC(=O)[C@@H](N)CC(=O)O)C(C)C)[C@@H](C)CC)CSSC[C@@H]2NC(=O)[C@@H](NC(=O)[C@H](CCCCN)NC(=O)[C@H](CC(N)=O)NC(=O)[C@H](C)NC(=O)[C@H](CC(C)C)NC(=O)[C@H](C)NC(=O)[C@H](CO)NC(=O)[C@H](Cc3ccc(O)cc3)NC(=O)[C@H](CC(C)C)NC(=O)[C@H](CCC(N)=O)NC(=O)c3ccc(-c4c5ccc(=[N+](C)C)cc-5oc5cc(N(C)C)ccc45)c(C(=O)[O-])c3)CSSC[C@H](NC(=O)CNC(=O)[C@H](C(C)C)NC(=O)[C@H](Cc3c[nH]cn3)NC2=O)C(=O)N[C@@H]([C@@H](C)O)C(=O)N[C@@H](CCCCN)C(=O)N[C@@H](CCCNC(=N)N)C(=O)N[C@@H](CO)C(=O)N[C@@H](CC(C)C)C(=O)N[C@@H](C)C(=O)N[C@@H](CCCNC(=N)N)C(=O)N[C@@H](Cc2ccccc2)C(=O)N[C@H](C(=O)O)CSSC[C@@H](C(=O)NCC(=O)N[C@@H](CCSC)C(=O)N[C@@H](CO)C(=O)N[C@H](C(=O)N[C@@H](Cc2c[nH]c3ccccc23)C(=O)N[C@@H](CO)C(=O)O)[C@@H](C)O)NC1=O,"Relaxin receptor 1 (RXFP1, Homo sapiens, UniProt Q9HBX9, F76A/Y80A)","binding, NanoBRET",,with: relaxin 10 nM,,dissociation plateau,14.2%
[Ca],"Transient receptor potential cation channel subfamily A member 1 (TRPA1, Homo sapiens, UniProt O75762)","ion current, two-electrode voltage clamp",Xenopus oocytes,"concentration not given, +80 mV, with: extracellular Ca2+",baseline: current before Ca2+ addition,potentiation,4.84 fold change and 1.51 fold change and 3.46 fold change and 2.91 fold change and 2.08 fold change
CNC[C@H](O)c1cccc(O)c1,"Alpha-1A adrenergic receptor (ADRA1A, Homo sapiens, UniProt P35348)","agonist, immunoblot, item: phospho-ERK1/2",HEK293 stably transfected with ADRA1A,10 µM,,duration of ERK phosphorylation,24 h
CCCC[C@@H]1NC(=O)[C@H](Cc2ccc(O)cc2)NC(=O)[C@@H]2CCCN2C(=O)[C@H](CCC(=O)O)NC(=O)[C@H](C)NC(=O)[C@H](Cc2ccccc2)NC(=O)[C@@H]2CSCCC(=O)N3CN(CN(C3)C(=O)CCSC[C@H](NC(C)=O)C(=O)N[C@@H](CC(C)(C)C)C(=O)N3CCC[C@H]3C(=O)N[C@@H](CCC(=O)O)C(=O)N[C@H](CCCCNC(=O)CCc3cn(CCOCCOCCOCCN(CCOCCOCCOCCC(=O)N[C@H]4CSCCC(=O)N5CN6CN(C5)C(=O)CCSC[C@H](NC(=O)[C@@H](CC(=O)O)NC(=O)[C@H](Cc5cccc7ccccc57)NC(=O)[C@@H]5CCCN5C4=O)C(=O)N[C@@H](CCSC)C(=O)N[C@@H](CCCCNC(=N)N)C(=O)N[C@@H](CC(=O)O)C(=O)N[C@@H](Cc4c[nH]c5ccccc45)C(=O)N[C@@H](CO)C(=O)N[C@@H]([C@@H](C)O)C(=O)N4CCC[C@H]4C(=O)N4C[C@H](O)C[C@H]4C(=O)N[C@@H](Cc4c[nH]c5ccccc45)C(=O)N[C@H](C(N)=O)CSCCC6=O)CCOCCOCCOCCn4cc(CCC(=O)NCCCC[C@H]5NC(=O)[C@H](CCC(=O)O)NC(=O)[C@@H]6CCCN6C(=O)[C@H](CC(C)(C)C)NC(=O)[C@@H](NC(C)=O)CSCCC(=O)N6CN7CN(C6)C(=O)CCSC[C@H](NC(=O)[C@H](Cc6ccc(O)cc6)NC(=O)[C@@H]6CCCN6C5=O)C(=O)N[C@@H](Cc5ccccc5)C(=O)N[C@@H](C)C(=O)N[C@@H](CCC(=O)O)C(=O)N5CCC[C@H]5C(=O)N[C@@H](Cc5ccc(O)cc5)C(=O)N[C@@H](CCCC)C(=O)N[C@H](C(N)=O)CSCCC7=O)nn4)nn3)C(=O)N3CCC[C@H]3C(=O)N[C@@H](Cc3ccc(O)cc3)C(=O)N2)C(=O)CCSC[C@@H](C(N)=O)NC1=O,"Tumor necrosis factor receptor superfamily member 9/Nectin-4 (Homo sapiens, UniProt Q07011+Q96NY8)","reporter gene, agonist",HT-1376 coculture with reporter cells,,baseline: background,Emax,11 fold
O=C(O)c1ccccc1Nc1cccc(C(F)(F)F)c1,"Taste receptor type 2 member 14 (TAS2R14, Homo sapiens, UniProt Q9NYV8)","G-protein dissociation, TRUPATH gustducin BRET",,"30 µM, wild-type receptor, unit not given",baseline: vehicle,ΔBRET,-0.0246 and -0.0365 and -0.0367 and -0.0465 and -0.0432 and -0.0683 and -0.0347
O=c1ccn([C@@H]2O[C@H](COP(=O)(O)OP(=O)(O)OP(=O)(O)O)[C@@H](O)[C@H]2O)c(=O)[nH]1,"DNA-directed RNA polymerase subunit beta' / DNA-directed RNA polymerase subunit beta (rpoC/rpoB, Escherichia coli, UniProt P0A8T7+P0A8V2)","RNA extension, rapid quench-flow","Escherichia coli, elongation complex, 6-MI template","200 µM, 25 °C, fast complex fraction",,nucleotide addition rate,30 ± 1 s⁻¹
Nc1ncnc2c1ncn2[C@@H]1O[C@H](COP(=O)(O)CP(=O)(O)OP(=O)(O)O)[C@@H](O)[C@H]1O,"P2X purinoceptor 1 (P2RX1, Homo sapiens, UniProt P51575, R139P)",calcium influx,,316 nM,baseline: ionomycin response,calcium influx,22.3% and 20.3% and 13.1%

# Excerpt of the above:
Compound,target,assay,system,conditions,scale,quantity,result
[H]/N=C(/N)NCC(=O)O,"Sodium- and chloride-dependent taurine transporter (SLC6A6, Homo sapiens, UniProt P31641, G62A)","binding, microscale thermophoresis",,"62.5 µM, room temperature, with: 50 nM labelled protein",higher = more binding,normalised MST signal,-0.00654
